Measured values pooled from the literature.
Numbered parts are unrelated; each lists some results of a single study.

Set 1 — method: protein-binding microarray; molecule type: double-stranded DNA, one strand shown; sample: in vitro; concentration: 250 nM; setting: 60-bp whole probe; together with: salmon DNA 0.4 mg/ml; relative to: random background probes; reading: higher = stronger binding; constant ends, left off below: GCCTAGCAC … GTCTTGATTCGCTTGACGCTGCTG
Target: Interferon regulatory factor 7, full length, phosphomimetic (IRF7, Homo sapiens, UniProt Q92985, residues 1-503, S101K/S471D/S472D/S475D/S476D/S477D/S483D/S484D/S487D)
Residues (chain): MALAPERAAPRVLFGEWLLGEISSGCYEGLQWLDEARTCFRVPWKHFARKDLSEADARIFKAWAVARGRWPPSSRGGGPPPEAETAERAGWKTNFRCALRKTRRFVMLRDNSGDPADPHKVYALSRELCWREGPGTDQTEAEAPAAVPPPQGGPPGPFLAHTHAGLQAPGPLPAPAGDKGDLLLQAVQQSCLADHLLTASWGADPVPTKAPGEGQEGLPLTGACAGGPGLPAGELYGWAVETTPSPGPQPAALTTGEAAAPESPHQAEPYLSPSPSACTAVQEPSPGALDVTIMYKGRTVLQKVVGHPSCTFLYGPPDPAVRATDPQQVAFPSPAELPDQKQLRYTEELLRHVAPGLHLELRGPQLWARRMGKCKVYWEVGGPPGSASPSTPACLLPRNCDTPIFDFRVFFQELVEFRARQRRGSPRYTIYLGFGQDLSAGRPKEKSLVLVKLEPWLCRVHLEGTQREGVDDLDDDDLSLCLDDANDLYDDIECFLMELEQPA
| Sequence | log fluorescence [z-score] |
| --- | --- |
| GACGATTTAGGGTATCGAGACGTGCTA | -0.172 |
| TTAGGGTTCCTTTCCCTTTAGTGCTAG | 1.1 |
| GACGAACTTGGGTATCGAGACGTGCTA | -0.475 |
| GTCGATCTCAGTATCGAGACGTGCTAG | 0.423 |
| GACGATATCGGGTTTCGAGATGTGCTA | 3.98 |
| GACGATATCAGACAGGAGACGTGCTAG | -0.006 |
| TTAGAACTGCGGTATCGATTAGTGCTA | 0.251 |
| TTAGATTTCGGGTATCGAATAGTGCTA | 1.02 |
| TTAGAACTGAGACTGGATTGGTGCTAG | -0.277 |
| TTAGGTTTACTTTTCCTTTAGTGCTAG | 1.27 |
| ATAGATATCAGTTTCGATTAGTGCTAG | 8.51 |
| CTTCTTTTGCTAATTTTTTTGTGCTAG | 1.37 |
| TCAATTCTCAGCCCTGCGACTGTGCTA | 0.0608 |
| TGTCCTTTCACTTTAACTTAGTGCTAG | 1.8 |
| TCACTTTTGCTTTACTGACTGTGCTAG | 1.72 |
| GACGATACCGGGACTGGAGACGTGCTA | -0.242 |
| TCAGCTCCAGGTTCTCTGACTGTGCTA | -0.541 |
| TTAGATATCGGGAATCGATTAGTGCTA | 0.556 |
| CACGGACTGGGTTTCGGGACGTGCTAG | 1.56 |
| GACGATTTCGGGTATCGAGGCGTGCTA | 0.531 |

Set 2 — method: RNA Bind-n-Seq; molecule type: RNA; sample: in vitro; concentration: 365 nM; relative to: no-protein control; reading: higher = stronger binding
Target: RNA binding protein fox-1 homolog 2, RRM domain, GST-SBP tag (RBFOX2, Homo sapiens, UniProt O43251-10, residues 100-194)
Setting: natural RNA segment, single round, ends assumed
Constant ends, left off below: GGGAGUUCUACAGUCCGACGAUC … UGGAAUUCUCGGGUGCCAA
Target sequence (chain): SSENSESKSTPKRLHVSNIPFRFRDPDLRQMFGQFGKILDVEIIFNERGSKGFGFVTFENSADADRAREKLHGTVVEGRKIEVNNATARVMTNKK
| Sequence | RBNS enrichment (R) |
| --- | --- |
| CAGAUCCACACAGUGUAAAAUACUAUACAACCAAACAUCCGCCUUUACAGGUCGUUAUUCUUCUAAGCAGUAGGUAACUUUUCCUGGGUUUCAUUCUUUCUAGUGUACUA | 0.354 |
| CUCCACCAAGACCAUAUAGACCAUCUGGCGGGCUCAAGCCGGGGCUUUUUCCUCUCCAGUCCAAAACACCUCACUGUUCCUGUCUACCUCGGGGUCAGGGCCCGGCAUGG | 0.52 |
| UCUCAUGUAUCGUAGAUUGGCCUUUAAGUCACUUUACCAAGGAUGAUCUUUGAACUCCUGAGUACAGACUGCGGGUGUGUGCUACCAUGCUUUAUGUGGCCCUGGGUUCA | 0.327 |
| CCACAGCACCCUCAAGCAUACGGCGCUGUUCCUGCCACUGUCCUGAAGAUGUGAAUGGGUGGUACGAUUUCAACACUGGUUAAUUUCACACUCCAUCUCCCCGCUUUGUA | 0.624 |
| CACCCCCUCCUCCCCAUCCCACCCUUUGGAAACUCCCCAUUGUCACUGAGAACCACCAAAUCUGACUUUUACAUUUGGUCUCAGAAUUUAGGUUCCUGCCCUGUUGGUUU | 0.669 |
| UGGUGGGAAGCGUCUGUCCGUUUACUCCAAGGUGGGGUCUUUGUGAGAGUGAGCUGUAGGUGUGCGGGACCGGUACAGAAAGGCGUUCUUCGAGGUGGAUCACAGAGGCU | 1.12 |
| CUUUCUCGGGCUGCUUUUGCGUCGUUGUCCUAGGUGGCCAGAUUGUCUUGAUAAGAGCAGAUCUGGGGACUGAUCGGAUUGGCAGGAAAAGAACAGAGUGCAUCUCUUGG | 0.262 |
| AACUGAGUGUAGAAAUCUGAAUUUUUAAAAGAGCUGUAACUAGUUGUAAGUGCUUAGGAAGAAACUUUGCAAACAUUUAAUGAGGAUACACUGUUCAUUUUUAAAAUUCC | 0.364 |
| UUAUAUUCCUUUUUUAUUUGUUCCUUUAGUUUGUUUUGGUUCAGCAGUCAGCAGUUAAGUAUAUAACAUGGCCCGCAAGGACAAUGAAUCCACUCACAUUGCAGAACAAU | 0.54 |

Set 3 — method: RNA Bind-n-Seq; molecule type: RNA; sample: in vitro; concentration: 200 nM; setting: whole 134-nt RNA, ends assumed; together with: 150 mM LiCl; relative to: input library; reading: higher = stronger binding; all molecules: 7-deaza-guanosine replaces G
Target: Ras GTPase-activating protein-binding protein 1, full length (G3BP1, Homo sapiens, UniProt Q13283)
Chain of UniProt Q13283 (whole entry, looked up): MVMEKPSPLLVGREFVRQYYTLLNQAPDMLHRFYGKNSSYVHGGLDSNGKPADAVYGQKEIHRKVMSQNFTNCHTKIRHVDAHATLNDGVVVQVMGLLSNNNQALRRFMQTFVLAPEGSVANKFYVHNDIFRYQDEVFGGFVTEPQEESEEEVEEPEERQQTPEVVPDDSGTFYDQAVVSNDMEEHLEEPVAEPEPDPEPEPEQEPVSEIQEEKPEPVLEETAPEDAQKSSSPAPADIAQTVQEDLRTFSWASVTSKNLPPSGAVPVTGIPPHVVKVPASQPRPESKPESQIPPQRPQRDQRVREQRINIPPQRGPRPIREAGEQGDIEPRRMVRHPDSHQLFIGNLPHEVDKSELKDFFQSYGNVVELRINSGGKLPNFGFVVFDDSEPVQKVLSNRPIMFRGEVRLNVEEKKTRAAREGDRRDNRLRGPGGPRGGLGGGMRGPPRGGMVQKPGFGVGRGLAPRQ
Constant ends, left off below: GGGAGUUCUACAGUCCGACGAUC … UGGAAUUCUCGGGUGUCAAGG
| Sequence | log2 enrichment |
| --- | --- |
| GAGGAGAUAAUCUCGGAAAAGUUACGGAAACCUGGGAAGUCGGCGAAACCCUACGUUCGGGUGUUUUCGGAAGCAGCCGAAGCGGCCGCC | 0.163 |
| CGGCCCUGGUGGCAUGCGGGGAGGAAGAGGUGGCCUCAUGGAUCGUGGUGGUCCCGGUGGAAUGUUCAGAGGUGGCCGUGGUGGAGACAG | 0.503 |
| AAGUCCUGUGCUACACAUCGUAUGUACCGAAUCGGGAAAAAAAGGGAAAGGGUGGGAAAGUAUUAUGUUACGCCGUUCGGAUCUGCACUU | -0.532 |
| UAAAUUCAUCUGAAAAUGGUGAGGACAGGCACAAACGCAAAGAAAGAAAGUCAUCAAGAGGCAGAAGUCACUCAAGAUCUAGGUCUCGUG | -2.34 |
| AAGUCCUGUGCUACACAUCGUAUGUACCGAAUCGGGUUUGGGUUUUUGGGAAAGGGAAAGUAUUAUGUUACGCCGUUCGGAUCUGCACUU | 0.151 |
| CCUGUGCUACACAUCGUAUGUACCGAAUCGGGGUUUUUGGGGUUUGGGGUUUUUUUGGGGAAAGUAUUAUGUUACGCCGUUCGGAUCUGC | 0.626 |
| CUCAAGUCCUGUGCUACACAUCGUAUGUACCGAAUCGGAAAAAGGAGGAAAGGAAAGUAUUAUGUUACGCCGUUCGGAUCUGCACUUCCA | -0.559 |
| UUCAAGGCCAUGAAGGACCUGUUUAUGCGGUGCAUGCUGUUUACCAGAGGAGGACAUCAGAUCCUGCAUUAUGUACACUGAUCGUUUCUG | -1.49 |
| UGGGAGGUGGAUUUUGUUUAUUUUUUUAGCUCUUUUCCAGGGGUGGGAAUUUUUUUUUAAUAUGUGUCAUGAAUAAAGUUGUUUUUGAAA | 0.367 |
| CAAGUCCUGUGCUACACAUCGUAUGUACCGAAUCAAAUUUAAACCCAAACCCAAAAAAGUAUUAUGUUACGCCGUUCGGAUCUGCACUUC | 1.27 |
| ACCAUGCAGGUGGGCAUCUUUGGGAAGUGGGGCAAGGGGGGGAUAGGGAAAAGGGUAACACUUUGGGAACAGGUGGUCCCAGGUCGUUUC | 0.474 |

Set 4 — method: RNA Bind-n-Seq; molecule type: RNA; sample: in vitro; concentration: not given; relative to: input RNA pool; reading: higher = stronger binding
Target: RING finger protein unkempt homolog, zinc fingers 1-6, GST-SBP tag (UNK, Homo sapiens, UniProt Q9C0B0, residues 30-357)
Setting: RNA with constant flanks, human and mouse sites, ends assumed
Constant ends, left off below: GGGAGUUCUACAGUCCGACGAUC … CAACAGAGGAUUGAGCAUCA
Construct (chain): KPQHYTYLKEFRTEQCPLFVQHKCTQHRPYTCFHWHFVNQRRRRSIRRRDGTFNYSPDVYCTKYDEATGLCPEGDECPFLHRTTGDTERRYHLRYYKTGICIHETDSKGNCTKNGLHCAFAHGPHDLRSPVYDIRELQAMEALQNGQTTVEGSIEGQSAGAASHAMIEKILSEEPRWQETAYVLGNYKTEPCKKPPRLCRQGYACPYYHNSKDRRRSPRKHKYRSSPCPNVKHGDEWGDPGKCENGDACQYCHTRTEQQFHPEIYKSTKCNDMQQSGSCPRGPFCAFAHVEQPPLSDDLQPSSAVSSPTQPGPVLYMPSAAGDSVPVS
| Sequence | bound/input enrichment |
| --- | --- |
| AAGUCGAUUACUAUCCUCUCUACUCCUGAAGGCACCUCUGCGGCUUGUAAGUCUAUUCUGGAGAUUAUGCAUAAGGAAGCUCAAGAUAUAAAAUUCACAGAAGAGAUCCCCUUGAAGAUU | 0.125 ratio |
| AUUGUAAAUGAUUUGUAUCGUAUGAUUAAGGAUCUAAGGCACAAUAUUUGUCACUGUUCUAUUAGACUUUUUACUGAAAAUGAAUAAUGGUGUAAUGGUUCUCCUGGGGCUGUCACAUUU | 1.14 ratio |
| GCUACAGGGCUCCUGGUGCUGAAGGACCUGGGCAUCCAAGUGGACCGCUACAUUGCCUCCGAGGUGUGUGAGGACUCCAUCACGGUGGGCAUGGUGCGGCACCAGGGAAAGAUCAUGUAC | 0.0804 ratio |
| GCUUCAAACUUGCAACGUGGAUUUCAUUUUUUUUUUUUUUUAAUUUAUUCUCUGGGAUCCCUUAGUAACCUGGCAUUGCUCAUUGCUCAUGAAUCCCUUAACAAUGGCGGAGCUGACGCG | 2.52 ratio |
| UAGUUGCCCCUCCUCCCACUCCCCAGUCCACGGUCACUGCAAAAUGAACCUUUCCACUCCCCUUGCACGGGGUCCUCGUCUACCUCCUCCCCUCCCACCAGUAAUGCAGUCAUUAAUCCU | 4.4 ratio |
| UUUCAAAGAAACAGCUGUGCUAAUGUCUUUGGUUUCCCGAUGAGUGUACACUACUGUAUAAUUUAUGUUUACCAUAUGAGUCUUGAAACACUACAGAUAUUUUGAAUAUCAGUCAUGAUG | 0.0992 ratio |
| GAAUACCAAAGUGAAGGACUUUGUGUCAUUCAGUAAAAUUUUCUUUUUUCAUAUCCUAAGUAGCUCCCAUUCCCUCACCUUUUCAAUCAGAAUUAACAAAUUCAAGCCUUCAGUAAAGUA | 0.36 ratio |
| GAUGAUGAUCCUUACUAUUAUUAUUAUAAGUCCAGGAGAAAUCGCAGUAAAUUGAGGAAAAAGCUUGUUCCAUCCACAAAAAAAGGAAAAAGUCAACCAUUUAUCAAUCCCGAUUCACAA | 0.109 ratio |
| CUCAAGUCACUCAUCUAAACGUGAGACUGUCUGCUCCACGCCAGGUUGGUUUUAUUGUUUUGUUUUUAAAGAGAGAAUACUUAAUUUUUACUUUAAAUAAAAACUACUUCUGACGGAAAA | 0.125 ratio |
| CUGGAAUUUAAGGACUUGGUGCAGCUCACUCAUUGCCAUGACCCGGAAAUGGACUUCUUUGAGAACAUGAAGCACAUUCAGAUCCACAGACGAGCAAGAGCCCUGAAGAAACUGGCUAAG | 0.163 ratio |
| UUUCUCCGUCGCCACAAGCGGCCCGGUGGCAUGUGCUAAGGCGGCUUCCGCUGUUUCAGUCUAGAUUUUUUUCUUAACAGUCCCAUUCCAAUUCUUUUGCAAGCAAAGAAACUGAGGCUG | 1.33 ratio |
